Measured values gathered from unrelated publications.
Each line is one published result; not all experiments were run side by side. Several values in a cell are separate wells, animals, samples, runs or records. ± marks the error that the study gave.
MAPK8: Mitogen-activated protein kinase 8 (MAPK8, Homo sapiens, UniProt P45983)
UniProt P45983, sequence (whole entry, looked up): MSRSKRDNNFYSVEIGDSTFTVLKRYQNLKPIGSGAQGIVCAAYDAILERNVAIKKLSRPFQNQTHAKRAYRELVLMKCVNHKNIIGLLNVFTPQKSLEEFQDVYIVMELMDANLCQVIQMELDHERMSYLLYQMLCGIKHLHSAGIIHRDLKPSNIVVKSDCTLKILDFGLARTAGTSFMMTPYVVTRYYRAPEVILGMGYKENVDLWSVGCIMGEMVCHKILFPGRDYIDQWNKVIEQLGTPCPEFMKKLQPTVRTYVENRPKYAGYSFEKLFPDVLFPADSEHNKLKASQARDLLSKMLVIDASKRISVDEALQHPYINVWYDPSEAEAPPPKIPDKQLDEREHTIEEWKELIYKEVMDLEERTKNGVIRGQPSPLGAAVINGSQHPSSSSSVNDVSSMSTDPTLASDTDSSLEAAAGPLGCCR
UniProt Q13148, sequence (whole entry, looked up): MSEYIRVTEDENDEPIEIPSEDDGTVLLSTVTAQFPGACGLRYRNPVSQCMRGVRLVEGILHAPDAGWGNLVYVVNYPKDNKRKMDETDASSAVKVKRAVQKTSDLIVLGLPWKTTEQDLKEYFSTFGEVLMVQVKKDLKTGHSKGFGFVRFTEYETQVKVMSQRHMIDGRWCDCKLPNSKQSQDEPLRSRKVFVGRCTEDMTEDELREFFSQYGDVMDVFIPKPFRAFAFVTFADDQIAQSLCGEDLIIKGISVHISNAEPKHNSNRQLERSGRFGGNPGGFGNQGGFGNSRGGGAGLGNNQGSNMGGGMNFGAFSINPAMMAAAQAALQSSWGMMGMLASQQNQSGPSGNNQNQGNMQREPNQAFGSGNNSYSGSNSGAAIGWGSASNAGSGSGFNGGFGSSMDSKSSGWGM
UniProt Q9UKP6, sequence (whole entry, looked up): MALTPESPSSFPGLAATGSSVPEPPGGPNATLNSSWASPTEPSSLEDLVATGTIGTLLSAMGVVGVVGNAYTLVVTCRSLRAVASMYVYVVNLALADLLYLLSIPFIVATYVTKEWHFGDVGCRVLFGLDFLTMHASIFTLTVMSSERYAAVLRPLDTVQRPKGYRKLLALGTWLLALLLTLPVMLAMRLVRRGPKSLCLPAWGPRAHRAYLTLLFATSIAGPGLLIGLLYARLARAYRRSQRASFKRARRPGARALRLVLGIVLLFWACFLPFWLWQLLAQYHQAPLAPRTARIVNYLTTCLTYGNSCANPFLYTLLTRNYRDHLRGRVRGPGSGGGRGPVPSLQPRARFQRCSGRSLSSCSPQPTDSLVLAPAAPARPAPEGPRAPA
UniProt P04756, sequence (whole entry, unmodified, looked up): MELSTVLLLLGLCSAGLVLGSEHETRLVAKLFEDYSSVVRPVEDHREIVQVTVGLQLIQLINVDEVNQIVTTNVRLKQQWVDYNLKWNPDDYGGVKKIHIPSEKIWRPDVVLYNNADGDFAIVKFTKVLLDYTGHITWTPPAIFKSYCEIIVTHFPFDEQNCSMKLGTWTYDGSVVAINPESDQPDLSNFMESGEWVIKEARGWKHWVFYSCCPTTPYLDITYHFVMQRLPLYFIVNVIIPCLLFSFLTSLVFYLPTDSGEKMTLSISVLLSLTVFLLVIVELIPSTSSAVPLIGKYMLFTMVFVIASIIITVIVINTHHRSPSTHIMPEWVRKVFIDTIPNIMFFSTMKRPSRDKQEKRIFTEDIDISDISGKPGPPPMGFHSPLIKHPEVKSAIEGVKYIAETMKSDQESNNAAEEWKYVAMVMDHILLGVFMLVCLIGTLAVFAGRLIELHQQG
UniProt Q14974, sequence (whole entry, looked up): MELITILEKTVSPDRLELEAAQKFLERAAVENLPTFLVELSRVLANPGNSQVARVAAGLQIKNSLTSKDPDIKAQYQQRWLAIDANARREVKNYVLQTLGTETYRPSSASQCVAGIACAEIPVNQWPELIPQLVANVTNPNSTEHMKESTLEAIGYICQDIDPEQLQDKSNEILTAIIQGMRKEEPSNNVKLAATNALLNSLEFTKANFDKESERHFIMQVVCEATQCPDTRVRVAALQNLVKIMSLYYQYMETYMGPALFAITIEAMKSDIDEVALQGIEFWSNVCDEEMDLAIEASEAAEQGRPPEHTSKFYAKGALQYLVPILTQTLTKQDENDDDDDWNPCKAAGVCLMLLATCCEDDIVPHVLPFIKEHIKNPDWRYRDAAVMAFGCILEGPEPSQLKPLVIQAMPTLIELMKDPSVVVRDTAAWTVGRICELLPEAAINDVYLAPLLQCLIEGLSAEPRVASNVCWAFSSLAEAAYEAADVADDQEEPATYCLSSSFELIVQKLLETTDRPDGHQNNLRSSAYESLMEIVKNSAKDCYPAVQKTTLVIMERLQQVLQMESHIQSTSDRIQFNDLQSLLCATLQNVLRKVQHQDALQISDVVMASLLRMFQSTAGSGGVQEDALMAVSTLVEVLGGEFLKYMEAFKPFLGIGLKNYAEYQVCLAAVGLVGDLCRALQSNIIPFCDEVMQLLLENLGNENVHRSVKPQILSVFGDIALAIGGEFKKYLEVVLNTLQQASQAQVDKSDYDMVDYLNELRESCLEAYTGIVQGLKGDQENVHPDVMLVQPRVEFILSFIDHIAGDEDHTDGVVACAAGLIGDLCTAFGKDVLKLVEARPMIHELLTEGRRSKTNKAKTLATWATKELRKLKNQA
UniProt P02754, sequence (whole entry, unmodified, looked up): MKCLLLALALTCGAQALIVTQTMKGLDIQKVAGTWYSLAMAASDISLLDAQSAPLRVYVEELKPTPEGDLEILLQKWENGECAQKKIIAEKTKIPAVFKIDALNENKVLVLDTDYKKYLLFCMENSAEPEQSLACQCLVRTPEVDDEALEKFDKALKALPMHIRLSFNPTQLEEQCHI
UniProt Q15059, sequence (whole entry, looked up): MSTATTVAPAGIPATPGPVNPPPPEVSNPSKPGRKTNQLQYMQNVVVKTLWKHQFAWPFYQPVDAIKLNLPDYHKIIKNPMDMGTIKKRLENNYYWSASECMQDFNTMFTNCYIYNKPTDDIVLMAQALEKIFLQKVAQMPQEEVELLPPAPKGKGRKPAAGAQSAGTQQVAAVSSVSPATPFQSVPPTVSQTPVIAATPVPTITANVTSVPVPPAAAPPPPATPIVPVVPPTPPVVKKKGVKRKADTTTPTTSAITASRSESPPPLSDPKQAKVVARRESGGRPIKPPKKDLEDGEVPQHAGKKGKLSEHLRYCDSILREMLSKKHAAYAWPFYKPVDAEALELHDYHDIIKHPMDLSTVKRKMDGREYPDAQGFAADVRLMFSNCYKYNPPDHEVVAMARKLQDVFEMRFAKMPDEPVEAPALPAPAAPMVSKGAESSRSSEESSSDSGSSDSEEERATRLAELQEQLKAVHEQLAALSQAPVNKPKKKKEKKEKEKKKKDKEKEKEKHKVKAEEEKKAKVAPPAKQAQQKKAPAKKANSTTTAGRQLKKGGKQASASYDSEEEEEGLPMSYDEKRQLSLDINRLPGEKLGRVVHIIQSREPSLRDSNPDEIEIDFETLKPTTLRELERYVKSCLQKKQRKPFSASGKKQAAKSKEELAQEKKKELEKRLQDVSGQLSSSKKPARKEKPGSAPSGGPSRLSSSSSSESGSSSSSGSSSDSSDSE
UniProt P47936, sequence (whole entry, looked up): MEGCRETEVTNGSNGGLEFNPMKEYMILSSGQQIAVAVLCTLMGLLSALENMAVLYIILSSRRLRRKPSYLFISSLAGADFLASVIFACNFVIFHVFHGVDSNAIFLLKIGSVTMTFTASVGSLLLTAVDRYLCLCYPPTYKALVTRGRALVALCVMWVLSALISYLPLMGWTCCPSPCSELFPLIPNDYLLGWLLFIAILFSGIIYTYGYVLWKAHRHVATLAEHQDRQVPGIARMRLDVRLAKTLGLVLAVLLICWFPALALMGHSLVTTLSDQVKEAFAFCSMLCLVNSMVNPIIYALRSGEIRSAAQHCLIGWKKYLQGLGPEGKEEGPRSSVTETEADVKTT
UniProt P20273, sequence (whole entry, unmodified, looked up): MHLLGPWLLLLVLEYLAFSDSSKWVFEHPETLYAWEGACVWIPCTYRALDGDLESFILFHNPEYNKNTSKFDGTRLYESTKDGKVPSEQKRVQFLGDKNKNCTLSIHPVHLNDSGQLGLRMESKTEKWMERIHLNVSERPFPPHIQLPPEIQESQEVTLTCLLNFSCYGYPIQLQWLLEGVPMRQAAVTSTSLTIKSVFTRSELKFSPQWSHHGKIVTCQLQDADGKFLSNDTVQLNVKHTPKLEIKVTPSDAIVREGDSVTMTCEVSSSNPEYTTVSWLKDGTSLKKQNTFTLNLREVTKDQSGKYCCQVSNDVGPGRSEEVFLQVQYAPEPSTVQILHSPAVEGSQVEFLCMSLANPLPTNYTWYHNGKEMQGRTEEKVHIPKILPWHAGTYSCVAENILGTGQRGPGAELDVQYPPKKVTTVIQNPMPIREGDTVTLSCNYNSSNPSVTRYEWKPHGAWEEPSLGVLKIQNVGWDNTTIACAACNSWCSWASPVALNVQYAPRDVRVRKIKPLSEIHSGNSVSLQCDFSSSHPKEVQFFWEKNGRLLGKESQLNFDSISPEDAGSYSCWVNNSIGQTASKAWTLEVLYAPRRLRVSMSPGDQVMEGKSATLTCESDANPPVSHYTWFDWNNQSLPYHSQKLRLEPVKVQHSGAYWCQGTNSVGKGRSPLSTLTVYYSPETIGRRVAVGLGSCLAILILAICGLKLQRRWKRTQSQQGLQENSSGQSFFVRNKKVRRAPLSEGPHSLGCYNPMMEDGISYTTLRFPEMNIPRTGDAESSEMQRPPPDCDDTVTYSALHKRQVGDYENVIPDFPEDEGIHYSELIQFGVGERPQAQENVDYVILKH

Cn1cc(-c2cc(N3CCCCS3(=O)=O)ccc2N[C@H]2CC[C@H](C)CC2)c2cc[nH]c2c1=O (stereo in doubt) — remaining binding (Bromodomain-containing protein 3, BD1 (BRD3, Homo sapiens, UniProt Q15059); binding, competition with immobilised ligand; 1 µM): 0.75%
Cn1c(=O)n(C2CCC(=O)NC2=O)c2ccc(C3CCN(CC(=O)Nc4cccc(CS(=O)(=O)N5CC[C@H](Nc6cccc(-c7sc(C(=O)O)c(OCC(=O)O)c7Cl)c6)CC5(C)C)c4)CC3)cc21 (some centres unmarked) — BLI binding response (Tyrosine-protein phosphatase non-receptor type 2 (PTPN2, Homo sapiens, UniProt P17706, H30A/P33A/R35A); degrader, bio-layer interferometry; 15.6 nM; higher = more binding): 0.132 a.u.
COC(=O)CN1CCCc2cc3cc(C(=O)NC(Cc4ccc(C)cc4)C(=O)NCC=CS(=O)(=O)c4ccccc4)c(=O)oc3cc21 (centres unmarked) — kinact/Ki (Rhodesain (rhodesain, Trypanosoma brucei rhodesiense, UniProt Q95PM0); inhibitor; pH 5.5, 37 °C, added: Z-Phe-Arg-AMC): 1510 M⁻¹ s⁻¹
C[N+]1(C)CCCC1 — koff (Chrnd/Chrna1/Chrne (Mus musculus, UniProt P02716+P04756+P20782, G173K/S470W); single-channel kinetics; K chain side site): 3340 s⁻¹
CN(C)c1ccc(-n2cc(COC(=O)[C@@]3(C)C=C(C(=O)OC(C)(C)C)C(=O)CC3)nn2)cc1 — fraction bound (MAPK8; D-peptide binding, inhibitor, FP peptide displacement; 1.562 µM; lower is stronger displacement): 0.928
COC(=O)[C@@]1(C)C=C(C(=O)Nc2cccc(C(=O)Nc3ccc(Nc4nccc(-c5cccnc5)n4)c(C)c3)c2)C(=O)CC1 — remaining activity (Mitogen-activated protein kinase 8, phosphorylated (MAPK8, Homo sapiens, UniProt P45983); enzyme activity after dialysis, inhibitor; 10 µM, 4 days, unit not given; reference: no inhibitor): 0.277
CN(C)c1ccc(C#CCOC(=O)[C@]2(C)C=C(C(=O)OC(C)(C)C)C(=O)CC2)cc1 — fraction bound (MAPK8; D-peptide binding, inhibitor, FP peptide displacement; 31.25 µM; lower is stronger displacement): 0.247
CC(=O)N[C@H]1[C@H]([C@H](O)[C@H](O)CNC(=O)c2ccc(-c3ccccc3)cc2)O[C@@](OCc2cccc(Cl)c2Cl)(C(=O)O)C[C@@H]1O — -TΔS (B-cell receptor CD22 (CD22, Homo sapiens, UniProt P20273); isothermal titration calorimetry): 2.61 ± 0.03 kcal/mol
O=C(Cc1ccc(OCc2ccccc2)cc1)NC1(C(=O)O)CCN(C(=O)c2ccc(-c3cccc(Cl)c3)cc2)CC1 — activity vs control (Transcription initiation factor TFIID subunit 1-like (TAF1L, Homo sapiens, UniProt Q8IZX4); enzyme activity, inhibitor; 10 µM): 96%
CCCCCC(O)/C=C/C=O (centres unmarked) — isoTOP-ABPP competition ratio (Importin subunit beta-1 (KPNB1, Homo sapiens, UniProt Q14974); competitive isoTOP-ABPP; Ramos soluble proteome; 100 µM, added: iodoacetamide probe; reference: DMSO over compound-treated, higher = stronger cysteine blockade): 1.3
CC[C@H](C)[C@H](NC(=O)[C@@H](NC(=O)[C@@H](NC(=O)[C@@H](NC(=O)[C@H](CCCNC(=N)N)NC(=O)[C@H](CCC(=O)O)NC(=O)[C@H](CCC(=O)O)NC(=O)[C@H](C)NC(=O)[C@H](CCC(=O)O)NC(=O)CNC(=O)[C@H](C)NC(=O)CN)C(C)C)C(C)C)C(C)C)C(=O)N[C@@H](CC(=O)O)C(=O)N[C@@H](CC(=O)O)C(=O)N[C@@H](CC(=O)O)C(=O)N[C@@H](CCC(=O)O)C(=O)N[C@@H](CC(=O)O)C(=O)N[C@@H](CC(=O)O)C(=O)N[C@@H](CC(=O)O)C(=O)N[C@@H](C)C(=O)N[C@@H](CCC(=O)O)C(=O)N[C@@H](CC(N)=O)C(=O)N[C@@H](CO)C(=O)N[C@@H](CO)C(=O)N[C@@H](CO)C(=O)N[C@@H](CCCNC(=N)N)C(=O)N[C@@H](Cc1ccc(O)cc1)C(=O)O — enthalpy change (ΔH) (Small ubiquitin-related modifier 2 (Homo sapiens, UniProt P61956, C48A); isothermal titration calorimetry; concentration not given, pH 7.4, SUMO2 construct): 1.14 ± 0.14 kcal/mol
C[C@@H]1C[C@H](Nc2ccccc2)c2cc(F)ccc2N1C(=O)c1ccc(C#N)c(Cl)c1 — pIC50 Z-score (Ecdysone receptor (Aedes albopictus, UniProt Q9U3Y4); ligand binding, inhibitor; intact cells; added: [3H]ponasterone A; direction not given): 0.68
O=C1c2sc(-c3ccc(N4CCC(CO)CC4)nc3F)nc2CCN1c1cccnc1 — specific binding (TAR DNA-binding protein 43, aggregated (TARDBP, Homo sapiens, UniProt Q13148); radioligand binding; human, FTLD-TDP type B extract; added: radioligand 18.97 nM): 3.97 nM and 5.1 nM
COC(=O)[C@@]1(Cc2ccccc2)C=C(C(=O)OC(C)(C)C)C(=O)CC1 — fraction bound (MAPK8; D-peptide binding, inhibitor, FP peptide displacement; 62.5 µM; lower is stronger displacement): -0.0761
Cc1cc(=O)oc2cc(NC(=O)CCCCCCC(=O)NO)ccc12 — TΔS° (Histone deacetylase 8 (HDAC8, Homo sapiens, UniProt Q9BY41); ITC; Tris-HCl buffer; 293 K): 2.98 kcal/mol
CC(C)C[C@@H]1NC(=O)[C@H](Cc2ccccc2)NC(=O)[C@H](CO)NC(=O)[C@H](Cc2ccccc2)NC(=O)CSC[C@@H](C(=O)N(C)[C@@H](Cc2ccccc2)C(N)=O)NC(=O)[C@H](Cc2c[nH]c3ccccc23)NC(=O)[C@H](Cc2c[nH]cn2)NC(=O)[C@H](Cc2ccc(O)cc2)NC1=O — ΔTm (Stimulator of interferon genes protein (STING1, Homo sapiens, UniProt Q86WV6, H232R); thermal stability, DSF; 200 µM): 7.89 °C
CC(C)[C@H](NC(=O)[C@@H]1CSSC(C)(C)[C@H](NC(=O)[C@@H](N)CC(=O)O)C(=O)N[C@@H](Cc2ccccc2)C(=O)N[C@@H](Cc2c[nH]c3ccccc23)C(=O)N[C@@H](CCCCN)C(=O)N[C@@H](Cc2ccc(O)cc2)C(=O)N1)C(=O)O — span (Urotensin-2 receptor (UTS2R, Homo sapiens, UniProt Q9UKP6); IP1 accumulation, agonist, IP1 HTRF; HEK293T; 1 h, 37 °C): 100%
Cc1cc(C)c(CNC(=O)c2c(C)n(C(C)C3CCC(NC4(C)COC4)CC3)c3ccccc23)c(=O)[nH]1 (centres unmarked) — residence time (Histone-lysine N-methyltransferase EZH2 (EZH2, Homo sapiens, UniProt Q15910); binding, jump dilution; added: H3K27me3 activating peptide): 564 min
CCOC(=O)C(CC)(CCCSCCOCCOCCOCCN)NC(=O)c1ccc(C2CC2)c(Cc2ccc(F)cc2)n1 (centres unmarked) — Emax (Cannabinoid receptor 2 (Cnr2, Mus musculus, UniProt P47936); cAMP, agonist): 93%
CCCCCC=CC=C1C(=O)C=CC1CC=CCCCC(=O)O (centres unmarked) — isoTOP-ABPP competition ratio (Elongation factor 2, Cys41 (EEF2, Homo sapiens, UniProt P13639); competitive isoTOP-ABPP; Ramos soluble proteome; 100 µM, 60 min, added: iodoacetamide probe; reference: DMSO over compound-treated, higher = stronger cysteine blockade): 2
N#CN1CC[C@H](C(=O)Nc2nc3c(s2)CN(C(=O)CN=[N+]=[N-])CC3)C1 — total spectral count (Elongation factor 2 (EEF2, Homo sapiens, UniProt P13639); click pull-down LC-MS/MS; HEK293T cells): 12
C[Si](C)(C)C[C@@H](CN)CC(=O)O — inhibition (Galanin receptor type 1 (GALR1, Homo sapiens, UniProt P47211); enzyme activity, inhibitor; 75 µM): 2%
CCC1(CC)C(=O)N(c2cccc(CN3CCN(Cc4ccc(Br)c5ccccc45)CC3)c2)C1=O.O=C(O)C(F)(F)F — selectivity ratio (Dipeptidyl peptidase 8 (Homo sapiens, UniProt Q6V1X1); inhibitor; added: GP-AMC substrate; reference: Ki' DPP9 over Ki' DPP8): > 13
COc1cc(C2C(NC(=O)c3ccc(NC(=O)OC(C)(C)C)cc3)(C(=O)O)C(c3ccc(OC(=O)c4cccs4)c(OC)c3)C2(NC(=O)c2ccc(NC(=O)OC(C)(C)C)cc2)C(=O)O)ccc1OC(=O)c1cccs1 (centres unmarked) — Emax (Glucagon-like peptide 1 receptor (GLP1R, Homo sapiens, UniProt P43220, Q140A); cAMP accumulation, agonist; receptor mutant; reference: wild type): 100 ± 3.42%
COC(=O)[C@@]1(C)C=C(C(=O)OC(C)(C)C)C(=O)CC1 — fraction bound (MAPK8; D-peptide binding, inhibitor, FP peptide displacement; 7.812 µM; lower is stronger displacement): 0.883
O=C(O)[C@@H]1O[C@@H](O[C@H]2[C@H](O)[C@H](O)[C@H](O[C@H]3[C@H](O)[C@H](O)[C@H](O[C@H]4[C@H](O)[C@H](O)[C@H](O)O[C@H]4C(=O)O)O[C@H]3C(=O)O)O[C@H]2C(=O)O)[C@@H](O)[C@@H](O)[C@@H]1O — binding stoichiometry (Beta-lactoglobulin (LGB, Bos taurus, UniProt P02754, A134V/G80D); isothermal titration calorimetry; concentration not given, pH 4.00, 37 °C, 50 mM KH2PO4; ligand per protein): 4.2
